Results gathered from unrelated publications.
Each numbered part is a random draw from the data of one study; scales do not carry over between parts. Changes are numbered by the printed parent chain.

Block 1 — technique: RNA Bind-n-Seq; form: RNA; medium: in vitro; concentration: not given; baseline: input RNA pool; reading: higher = stronger binding
Target: RING finger protein unkempt homolog, zinc fingers 1-6, GST-SBP tag (UNK, Homo sapiens, UniProt Q9C0B0, residues 30-357)
Setting: RNA with constant flanks, human and mouse sites, ends assumed
Construct (chain): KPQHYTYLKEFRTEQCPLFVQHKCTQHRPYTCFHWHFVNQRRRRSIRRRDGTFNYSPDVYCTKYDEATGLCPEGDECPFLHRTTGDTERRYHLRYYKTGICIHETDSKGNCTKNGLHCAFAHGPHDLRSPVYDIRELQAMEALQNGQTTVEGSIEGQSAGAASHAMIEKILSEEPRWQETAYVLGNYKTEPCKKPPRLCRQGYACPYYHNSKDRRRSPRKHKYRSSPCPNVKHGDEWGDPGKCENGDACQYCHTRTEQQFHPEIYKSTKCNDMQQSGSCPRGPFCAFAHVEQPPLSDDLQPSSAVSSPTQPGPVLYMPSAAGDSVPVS
`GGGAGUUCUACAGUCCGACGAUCGCUUUUGUCUGCUCCCUGCCACGAAAUGUAAGUGAGCACGGCUAAGACUCUUGGACUAAGAUGACCUCUGGGCUUAGUUCACAGGCUAAGCUGUCUUUUGCUUCCCCACUUAAAAAAGUUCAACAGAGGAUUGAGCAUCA` gave a bound/input enrichment of 0.165 ratio.
`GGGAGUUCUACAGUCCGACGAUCAACAAGAUGAAGGAUCAGCUGUUGCCAGAGAAGGGCUGUGGACUGGCGCCACCUCACUAUCCCACUUUGCUAACUGUCCCUGCCUCAGUGUCCCUGUCCUCUGGCAUCAGCAUGGACACACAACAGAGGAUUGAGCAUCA` gave a bound/input enrichment of 0.146 ratio.
`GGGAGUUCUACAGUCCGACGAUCGCCAUUCAGGAACGAGUGGCUCAUGGCCAAACUGGAAACUUCUUGUUCUUUGGCUGCCGCCAGCGGGAUCAGGACUUCUACUGGCAGACUGAAUGGCAGAAGCUAGAGCAGAAGGGCUGGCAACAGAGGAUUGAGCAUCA` has a bound/input enrichment of 0.0911 ratio.
`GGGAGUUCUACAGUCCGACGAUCCGCAACGUGAUCGUGGAGCGCAGGAACCUGAUCACCGUGUGCAGGUUCUCUGUGAAAACCCUGCUAGAGAAGUACACAGCAGAACCCAUUGAUGACUCUUCCGAGGAGUUUGUUAAUUUCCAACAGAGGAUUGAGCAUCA` gave a bound/input enrichment of 0.0758 ratio.
The bound/input enrichment of `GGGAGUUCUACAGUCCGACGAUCCUAGUUUGUGUUUGUUUUUAAGAUUAAAUUAAUCCUUGAUAAAAGUUGCUUUUUUAGGGGUUAGUCUUUGACCACUAUAGUUUGAUGCCAUCUCCAUUUUGGUUGACCUGUCUCACCAUCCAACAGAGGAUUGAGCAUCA` is reported as 6.33 ratio.
With `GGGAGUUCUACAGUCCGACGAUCGCAUCGAGGGUUCGCAAAAGGCCACACUGGGGUUGUGUGUGUUUCCUUUGGUAUAUUCUGGAAACAUGGCUACACACACCCUUGCAUCUUCUGCUACAGACUGCUUUUCGAAGCUGUGUACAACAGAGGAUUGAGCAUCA` the bound/input enrichment was 0.165 ratio.
With `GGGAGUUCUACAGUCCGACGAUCCUCAAAAUAAAGUCAGAACUUGGAUUAAAUUUCUAUCAGCAAGUGAAACUGGUCAAUUUUAUUCGGAGGCAAGUUCACCAAUGCAGAUGUUAUGGCUGCCAUGUGAAGUUCAAAUCCAAACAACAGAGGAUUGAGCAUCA` the bound/input enrichment was 0.18 ratio.
The bound/input enrichment of `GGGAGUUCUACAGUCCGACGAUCUAGGAAUGCUCGGGCUAAAGGAAUGUCAUUUUACAAGUAUGUAAUGGAAAGUCGUGAUCCUAGUACAAAUGUGAUAUUAUUGGAGGAUACUGCUGCAGUCUUGGGAGUUAUAAUAGCAGCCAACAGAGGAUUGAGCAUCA` is reported as 1.03 ratio.

Block 2 — technique: protein-binding microarray; form: double-stranded DNA, one strand shown; medium: in vitro; concentration: 2540 nM top; setting: 60-bp whole probe; added: salmon DNA 0.4 mg/ml; baseline: random background probes; reading: higher = stronger binding
Target: Interferon regulatory factor 3, full length, phosphomimetic (IRF3, Homo sapiens, UniProt Q14653, residues 1-427, S386D/S396D/S398D/S402D/T404D/S405D)
Chain of UniProt Q14653 (whole entry, unmodified, looked up): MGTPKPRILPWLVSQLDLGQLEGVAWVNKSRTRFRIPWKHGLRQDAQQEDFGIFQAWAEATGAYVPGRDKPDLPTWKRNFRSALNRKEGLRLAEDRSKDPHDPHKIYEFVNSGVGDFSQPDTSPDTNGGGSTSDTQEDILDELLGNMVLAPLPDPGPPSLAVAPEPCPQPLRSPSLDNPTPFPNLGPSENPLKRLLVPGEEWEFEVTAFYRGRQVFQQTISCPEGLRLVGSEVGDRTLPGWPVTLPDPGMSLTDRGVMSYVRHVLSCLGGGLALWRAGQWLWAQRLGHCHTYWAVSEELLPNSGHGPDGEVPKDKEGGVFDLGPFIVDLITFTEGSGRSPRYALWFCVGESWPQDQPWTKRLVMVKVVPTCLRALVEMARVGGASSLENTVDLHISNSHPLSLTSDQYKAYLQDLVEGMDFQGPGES
Shared flanks, not repeated: GCCTAGCAC … GTGCTAGGTCTTGATTCGCTTGACGCTGCTG
`GACAATTTCAGTTCCGAGAC`: “fitted relative affinity” 2.89 z-score.
Under “fitted relative affinity”, `TTAGAACTGAGACTAGATTA` is recorded as -0.302 z-score.
Under “fitted relative affinity”, `GACGATATCAGTCTCAAGAC` is recorded as 1.04 z-score.
For `TTAGATATCCGTCTCGATTA`, “fitted relative affinity” read 2.37 z-score.
For `TTAGGTCTCCTTCTCCGTTA`, “fitted relative affinity” read 3.91 z-score.
`CAGGGTTTCAGATGCGTGAG`: “fitted relative affinity” 0.756 z-score.
`TTCGGACTGGGTCTCGGTTA` — result for “fitted relative affinity”: -0.483 z-score.
Under “fitted relative affinity”, `TTAGGGTTCGGTATCGGTTA` is recorded as 3.72 z-score.

Other studies, line by line
P1: viral docking peptide; TSVRRALFTGGSD; partner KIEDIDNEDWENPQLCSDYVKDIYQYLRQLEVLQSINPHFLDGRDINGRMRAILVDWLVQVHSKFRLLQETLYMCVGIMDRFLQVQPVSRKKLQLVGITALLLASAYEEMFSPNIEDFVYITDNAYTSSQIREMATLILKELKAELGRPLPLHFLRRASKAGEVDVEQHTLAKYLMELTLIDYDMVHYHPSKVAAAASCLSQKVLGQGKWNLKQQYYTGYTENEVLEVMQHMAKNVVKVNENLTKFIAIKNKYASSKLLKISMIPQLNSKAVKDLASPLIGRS
`ERWFVRNPF`: binding “inactive” (HLA class I histocompatibility antigen, A alpha chain, allele A*80:01 (Homo sapiens, UniProt P04439); peptide-MHC binding; peptide; concentration not given).
Under “normalised enrichment score”, `P1 V3L` is recorded as 0.896 (CCNB2, cyclin fold, Cln2 fusion (human); yeast growth competition, sequencing; yeast; strong parent motif; baseline: not given, higher = stronger binding).
